Experimental data of several laboratories.
Parts stem from different laboratories: compare values within a part only. Substitutions count along the parent as printed.

Sample 1
Target: RING finger protein unkempt homolog, zinc fingers 1-6, SBP tag (UNK, Homo sapiens, UniProt Q9C0B0, residues 30-357)
UniProt Q9C0B0, sequence (30-357, looked up): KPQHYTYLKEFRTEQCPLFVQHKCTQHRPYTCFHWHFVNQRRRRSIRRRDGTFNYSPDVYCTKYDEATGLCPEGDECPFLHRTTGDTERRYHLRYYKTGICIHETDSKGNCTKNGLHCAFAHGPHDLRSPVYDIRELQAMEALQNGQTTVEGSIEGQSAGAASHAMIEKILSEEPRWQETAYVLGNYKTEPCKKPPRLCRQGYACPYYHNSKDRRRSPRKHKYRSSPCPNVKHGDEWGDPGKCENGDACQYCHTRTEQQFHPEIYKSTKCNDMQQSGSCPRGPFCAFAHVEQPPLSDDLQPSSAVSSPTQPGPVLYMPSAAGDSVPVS
Method: RNA Bind-n-Seq
Molecule type: RNA
Matrix: in vitro
Concentration: 100 nM
Notes: RNA with constant flanks, vertebrate orthologous sites, ends assumed
Baseline: input RNA pool
Reading: higher = stronger binding
Quantity: bound/input enrichment
GGGAGUUCUACAGUCCGACGAUCCUUCCUUCCUUCCUUUAUUUUUUUUAUUUUUUUUUUAAUUUUUCUUUCUUUUUGUUUUGGUAGUAGUUGUUACCCACGCCAUUUUACGUCUCCUUCACUGAAGGGCUAGAGUUUUAACUUCAACAGAGGAUUGAGCAUCA: 12.2 ratio
GGGAGUUCUACAGUCCGACGAUCUUCGCUGAGCGGCAGCCUGCCAUCAGUGGCCGACUCCCACUCCAGCCACUUCUCUGAGUUCAGCUGCUCCGACCUGGAGAGCAUGAAGACCUCAUGUAGCCACGGCUCCAGCGGUGGUGACAACAGAGGAUUGAGCAUCA: 0.242 ratio
GGGAGUUCUACAGUCCGACGAUCGAUUAGUGUCAUACCAGCAUAUUAACCUCUCGUCUGUGCACAGCUUCAACCGUUACCGUCUAGUUAGAUUUUUAUUUAAAAUAUGAAAAACCGCUUUUCCCAAGACGUUUUUUAAAAAACCAACAGAGGAUUGAGCAUCA: 1.93 ratio
GGGAGUUCUACAGUCCGACGAUCUUUGAUUUUAUGUGUUUAAAAGGCUUAAGAAACAUUGCUUUAAAAAAGAAGGAAAAAAAGGCAAAUAGAGCAAACUUGUUGAAAUAGAAGAGAGUUUUAGGUAGAGAUGUACUCGCUUUGCAACAGAGGAUUGAGCAUCA: 0.252 ratio

Sample 2
Target: CCNA2, cyclin fold, Cln2 fusion (human)
Method: yeast growth competition, sequencing
Matrix: yeast
Notes: weak parent motif
Baseline: not given
Reading: higher = stronger binding
Quantity: normalised enrichment score
Starting sequence: AKAP12 docking peptide (human); GSPLKKLFTSTGL
F8A: -0.132
L4A: -0.103
L13A: 1.3
K6A: -0.0163
G12A: 0.21
L7A: -0.265
K5R: 0.851

Sample 3
Target: Histone acetyltransferase KAT6A, both winged helices, GST fusion (KAT6A, Homo sapiens, UniProt Q92794, residues 1-181)
Method: protein binding microarray
Molecule type: double-stranded DNA, one strand shown
Matrix: in vitro
Concentration: not given
Notes: 8-mer, flanks averaged, mean of 2 arrays, mostly near background
Baseline: not given
Reading: higher = stronger binding
Quantity: E-score
Construct (chain): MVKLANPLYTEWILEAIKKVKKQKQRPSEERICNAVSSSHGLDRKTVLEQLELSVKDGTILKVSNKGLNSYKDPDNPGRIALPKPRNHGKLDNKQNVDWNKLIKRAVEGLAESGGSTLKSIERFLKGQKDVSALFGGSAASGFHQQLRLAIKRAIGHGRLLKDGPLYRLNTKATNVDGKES
AGCGTCGC: 0.307
TGTCGTAA: -0.032
ATGGCAAT: -0.172
ATTGAAAG: -0.087
ATGTTGGC: 0.141
GTAGTAAA: -0.00237
ACACCGGC: 0.256
ATCTTTAG: 0.00754
GTCCGTAA: 0.227
ACGATCTC: 0.0122
ACGTTCTA: -0.116
GTCTGGGA: -0.183
CCGCGGAG: 0.351
AAGCACGC: 0.0302
ACGCATCA: 0.0896
TACGTCAA: -0.0406
AAGCCGCC: 0.227
CGGGGCCC: 0.148
AAACAGGA: -0.23
GCTCCGTA: 0.22

Sample 4
Target: Ras GTPase-activating protein-binding protein 1, C-terminal RGG region (G3BP1, Homo sapiens, UniProt Q13283)
UniProt Q13283, sequence (whole entry, looked up): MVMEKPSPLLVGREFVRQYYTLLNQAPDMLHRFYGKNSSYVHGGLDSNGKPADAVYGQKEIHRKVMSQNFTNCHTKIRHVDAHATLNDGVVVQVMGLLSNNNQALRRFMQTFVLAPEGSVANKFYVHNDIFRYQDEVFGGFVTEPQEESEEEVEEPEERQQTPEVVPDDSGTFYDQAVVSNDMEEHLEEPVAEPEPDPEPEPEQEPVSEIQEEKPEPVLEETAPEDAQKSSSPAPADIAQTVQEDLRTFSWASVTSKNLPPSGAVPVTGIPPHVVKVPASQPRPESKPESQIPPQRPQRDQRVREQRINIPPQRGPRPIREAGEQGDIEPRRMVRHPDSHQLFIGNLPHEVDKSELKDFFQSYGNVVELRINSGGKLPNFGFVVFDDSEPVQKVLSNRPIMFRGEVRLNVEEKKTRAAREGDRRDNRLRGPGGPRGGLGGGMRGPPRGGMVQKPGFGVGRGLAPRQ
Method: RNA Bind-n-Seq
Molecule type: RNA
Matrix: in vitro
Concentration: 1 µM
Notes: whole 134-nt RNA, ends assumed
Together with: 150 mM KCl
Baseline: input library
Reading: higher = stronger binding
Quantity: log2 enrichment
All sequences stand within: GGGAGUUCUACAGUCCGACGAUC … UGGAAUUCUCGGGUGUCAAGG
CCUGUGCUACACAUCGUAUGUACCGAAUCGGUUUUUUGGGGUUUUUUGGGUUUUUUGGGGAAAGUAUUAUGUUACGCCGUUCGGAUCUGC: -1.73
UCCUGUGCUACACAUCGUAUGUACCGAAUCAAACCCCCAAACCCCCAAAUUUUUUUAAAAAAGUAUUAUGUUACGCCGUUCGGAUCUGCA: -0.695
UUCAGUUUCCCAAACCUGAGAUGAUCUGUCAGCUGGAGAACUGGGACGAGCAGUGGAUCCUGGAUCUACCGAGAACUGGGAAUAGGAAGG: -0.0938
UUGUCUUCUGAGAUGUUGGGCCCCUCUUGGGAUGGAGAUGAAGCAGAAUCCACUGGUGAAAUCAUUAGACUUGGAGACACAGCACACACC: -0.413
UUGAACAUCUGCAGGAAAAGAGGCGAGAGGGCACUUUGAGAGUGGAUACCUACACUCUAGUGCAGCCUGAGGCAGAAGACCAUGUUGAGA: -1.69
UGCAGUGAUGGUCAUUGUCCUCCAGAGCAGUGAUGGAGGAAAUACCAGCCCAGGAAGCAGCAGGGUCACCAAGGGUCCAGUUUCAGUCUU: -0.529
UGGCAGGAAAGAGUUCCUAGAGAGAGAAGACAAAGACAGUCUGUGUUGCAAAAGAAGCCCAAGGCUGAAGAUUUAAGAACUGAAUGUGCA: -1.79
CAAGUCCUGUGCUACACAUCGUAUGUACCGAAUCGGUUUUUGGAAAAAGGAAAGGAAAGUAUUAUGUUACGCCGUUCGGAUCUGCACUUC: -1.78

Sample 5
Target: Centromere-binding protein 1, full length, N-terminal tag (CBF1, Saccharomyces cerevisiae, UniProt P17106, residues 1-351)
UniProt P17106, sequence (whole entry, looked up): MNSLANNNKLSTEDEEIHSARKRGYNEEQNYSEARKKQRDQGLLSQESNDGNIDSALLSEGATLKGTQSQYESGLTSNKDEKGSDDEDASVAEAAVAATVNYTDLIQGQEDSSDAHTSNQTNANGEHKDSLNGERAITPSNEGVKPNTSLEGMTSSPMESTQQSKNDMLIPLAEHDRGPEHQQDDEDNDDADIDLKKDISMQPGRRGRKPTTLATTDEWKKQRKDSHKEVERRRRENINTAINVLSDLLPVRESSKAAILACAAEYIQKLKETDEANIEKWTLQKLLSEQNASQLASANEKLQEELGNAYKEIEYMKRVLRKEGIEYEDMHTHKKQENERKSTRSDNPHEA
Method: protein-binding microarray
Molecule type: double-stranded DNA, one strand shown
Matrix: in vitro
Concentration: 0.8 µM
Notes: whole 60-bp probe, no competitor
Reading: higher = stronger binding
Quantity: fluorescence intensity
All sequences stand within: … GTCTTGATTCGCTTGACGCTGCTG
CTAATCCAAAATTTTCACACCTGAGATATATTGTTC: 542 a.u.
GAAACCTGAGTGGGTCATCACTACTTTGTGTTTTAG: 515 a.u.
CTAGTAACCTATGGTCACGGCCAGATTTTTTCCTTC: 656 a.u.
GAAAGGATGCTGAATGTCACCTCTTGCAACAAATAG: 543 a.u.
TGTACGAAGCTATACCACATGGGTATAGTAGTTAGG: 666 a.u.
TGTACGAAGCTATTGCACGTTCCTATAGTAGTTAGG: 581 a.u.
GAAGGACCCGTTTATTGCGTGTTAACAACTGTATAG: 531 a.u.
CTAATTACTATTGCGTACATCAGCAATCATCCATTC: 534 a.u.
CTACTAAACCCAGCTCACGTTCCCTATTAGTGGTTC: 673 a.u.
GAATAAATCCTGAGGAACGTGACACATAAAGTTTAG: 2530 a.u.
CTATTGCTGAATAGTCACGTTGATGAGCACGAATTC: 2090 a.u.
CTAAAAAAAAATACTCCATCAGCGTTAGCGGAATTC: 503 a.u.
CTAATACTGTACTATTGCGTGAAAACGAACAGATTC: 579 a.u.
GAATTGCAGTGGTTAGCCGTGATTAGTAGATAGTAG: 572 a.u.
CTAGAGTTTCGAGAATTCGTGATTCAATGTTCATTC: 512 a.u.
GAAACGTTACGGCGACACGTTATCATCAAACGCTAG: 672 a.u.

For quick reference, copied from above (sample 4):
UUCAGUUUCCCAAACCUGAGAUGAUCUGUCAGCUGGAGAACUGGGACGAGCAGUGGAUCCUGGAUCUACCGAGAACUGGGAAUAGGAAGG: -0.0938
UUGUCUUCUGAGAUGUUGGGCCCCUCUUGGGAUGGAGAUGAAGCAGAAUCCACUGGUGAAAUCAUUAGACUUGGAGACACAGCACACACC: -0.413
UUGAACAUCUGCAGGAAAAGAGGCGAGAGGGCACUUUGAGAGUGGAUACCUACACUCUAGUGCAGCCUGAGGCAGAAGACCAUGUUGAGA: -1.69
UGCAGUGAUGGUCAUUGUCCUCCAGAGCAGUGAUGGAGGAAAUACCAGCCCAGGAAGCAGCAGGGUCACCAAGGGUCCAGUUUCAGUCUU: -0.529
UGGCAGGAAAGAGUUCCUAGAGAGAGAAGACAAAGACAGUCUGUGUUGCAAAAGAAGCCCAAGGCUGAAGAUUUAAGAACUGAAUGUGCA: -1.79
